# Measured values gathered from unrelated publications.
# Compare with care: the assays were run in different laboratories. Several values in a cell are separate wells, animals, samples, runs or records. Numbers after ± are the reported error.
SMILES,tested on,test,test system,setting,how to read,endpoint,value
NC[C@@H]1O[C@H](O[C@H]2[C@@H](O)[C@H](O[C@@H]3[C@@H](O)[C@H](N)C[C@H](N)[C@H]3O[C@H]3O[C@H](CO)[C@@H](SCCF)[C@H](O)[C@H]3N)O[C@@H]2CO)[C@H](N)[C@@H](O)[C@@H]1O,"bacterial hybrid ribosome, human mitochondrial A1555G A site",cell-free translation,,,relative to: A1555G hybrid over wild-type bacterial,selectivity ratio,867
O=C(O)CC[C@H](NC(=O)N[C@@H](CCCCNC(=O)[C@H](Cc1ccc2ccccc2c1)NC(=O)[C@H]1CC[C@H](CNC(=O)CN2CCN(CC(=O)O)CCN(C(CCC(=O)NCCC[P+](c3ccccc3)(c3ccccc3)c3ccccc3)C(=O)O)CCN(CC(=O)O)CC2)CC1)C(=O)O)C(=O)O (stereo partly shown) [terbium-161 labelled],PC-3 PIP,,,,relative to: applied activity,mitochondrial uptake,5.4 ± 0.4%
CC[C@H]1CN2CCc3c([nH]c4cccc(OC)c34)[C@@H]2C[C@@H]1/C(=C\OC)C(=O)OC,rabbit anti-mitragynine polyclonal antibody,"antigen binding, competitor, competitive indirect ELISA",,0.001 to 50.0 µg/mL,,IC50,1.47 µg/mL
CC/C=C\C/C=C\C/C=C\C/C=C\C/C=C\C/C=C\CCC(=O)Nc1ccn(C2OC(CO)C(O)C2(F)F)c(=O)n1 (stereo not shown),NCI/ADR-RES,NCI60 screen,,,,TGI,14.8 µM
CC[C@H](C)[C@H](NC(=O)[C@H](CCCNC(=N)N)NC(=O)[C@H](CCC(N)=O)NC(=O)[C@H](CC(=O)O)NC(=O)[C@H](CC(C)C)NC(=O)[C@H](CC(C)C)NC(=O)[C@H](CC(N)=O)NC(=O)[C@H](Cc1ccccc1)NC(=O)[C@H](CC(=O)O)NC(=O)[C@@H](NC(=O)[C@@H](NC(=O)[C@H](CC(N)=O)NC(=O)CNC(=O)[C@H](CO)NC(C)=O)C(C)C)[C@@H](C)CC)C(=O)N[C@H](C(=O)N[C@@H](Cc1c[nH]c2ccccc12)C(=O)N[C@@H](CCC(N)=O)C(=O)N[C@@H](CC(N)=O)C(=O)N[C@@H](Cc1c[nH]c2ccccc12)C(=O)N[C@@H](Cc1ccc(O)cc1)C(=O)N[C@@H](C)C(N)=O)[C@@H](C)CC,,refers to: HA-52 tetramer,"antigen-experienced tetramer+ CD4 T cells, healthy adults, HLA-DRB1*0101",dose not given,,α4β7+ CCR9+ cells,11.1%
C[C@@](O)(C(F)F)[C@H](NC(=O)c1ccc(C#CC#CC2CC2)cc1)C(=O)NO,Stenotrophomonas maltophilia,agar dilution,clinical isolates,,,MIC50,0.25 µg/mL
CCC(=C(c1ccc(Cl)cc1)c1ccc(OCCCN(C)C)cc1)c1ccc(Cl)cc1,influenza A virus H1N1,"cytopathic effect, visual CPE",MDCK,,,EC50,0.32 µg/mL
CC(C)[C@]12O[C@H]1[C@@H]1O[C@]13[C@]1(O[C@H]1C[C@H]1c4c(C(=O)c5ccccc5)oc(OC(=O)c5ccccc5)c4CC[C@@]13C)[C@@H]2O,AML patient cells,"viable cell count, flow cytometry",,24 h,,EC50,0.0362 µM
CCCCCc1cc(OC(=O)C(NC(=O)CCC(=O)O)C(C)C)c2c(c1)OC(C)(C)C1CCC(C)=CC21 (stereo not shown),,,rabbit alpha-chymotrypsin glaucoma model,dose not given,,IOP decrease,10%
COc1ccc2cc1Oc1ccc(cc1)C[C@H]1c3cc(c(OC)cc3CC[N@+]1(C)Cc1ccc3c(c1)C(=O)c1ccccc1C3=O)Oc1c(OC)c(OC)cc3c1[C@H](C2)[N@@+](C)(Cc1ccc2c(c1)C(=O)c1ccccc1C2=O)CC3,mixed-sequence 12-bp dsDNA,"DNA binding, ethidium bromide displacement","phosphate buffer, 10% DMSO","pH 7.2, 25 °C, dsDNA 10 µM, 10 mM NaCl, together with: ethidium bromide 5 µM",,Stern-Volmer constant,133000 M⁻¹
Nc1ccc(/C=C/C(=O)N2CCc3c(oc4c(-c5ccc(F)cc5)cc(-c5ccc(C(=O)N6CCC(F)(F)CC6)cn5)cc34)C2)cn1,MIA PaCa-2,"western blot, refers to: cyclin D1",,"0.05 to 5 µM, 72 h",,protein level,decreased
Fc1ccc(-c2ccc(/C=C/Cn3ccnc3)cc2)cc1,Mycobacterium tuberculosis variant bovis BCG,microbial growth,BCG,,,MIC50,0.5 µg/mL
CC[C@H](C)[C@H](NC(=O)[C@H](CCCCN)NC(=O)[C@H](CCCCN)NC(=O)[C@H](C)NC(=O)[C@@H](NC(=O)[C@H](C)NC(=O)[C@H](CC(C)C)NC(=O)[C@H](CC(C)C)NC(=O)[C@H](C)NC(=O)[C@H](CCCCN)NC(=O)[C@H](CC(C)C)NC(=O)[C@H](CC(N)=O)NC(=O)[C@@H](N)CC(C)C)C(C)C)C(=O)N[C@@H](CC(C)C)C(N)=O,U251MG,MTT,,24 h,,IC50,36.6 µM
O=C(O)CC[C@H](NC(=O)N[C@@H](CCCCNC(=O)[C@H](Cc1ccc2ccccc2c1)NC(=O)[C@H]1CC[C@H](CNC(=O)CNC(=O)CNC(=O)CNC(=O)CN2CCN(CC(=O)O)CCN(C(CCC(=O)NCCC[P+](c3ccccc3)(c3ccccc3)c3ccccc3)C(=O)O)CCN(CC(=O)O)CC2)CC1)C(=O)O)C(=O)O (stereo partly shown) [terbium-161 labelled],PC-3 PIP,,,"concentration not given, efflux",,cell retention of activity,58% and 75%
COc1ccc2cc1Oc1ccc(cc1)C[C@H]1c3cc(c(OC)cc3CC[N@+]1(C)Cc1ccc3ccc4cccc5ccc1c3c45)Oc1c(OC)c(OC)cc3c1[C@H](C2)[N@@+](C)(Cc1ccc2ccc4cccc5ccc1c2c45)CC3,mixed-sequence 12-bp dsDNA,"DNA binding, ethidium bromide displacement","phosphate buffer, 10% DMSO","pH 7.2, 25 °C, dsDNA 10 µM, 10 mM NaCl, together with: ethidium bromide 5 µM",,Stern-Volmer constant,48400 M⁻¹
CNc1nc(SC)nc2ccccc12,Mycobacterium tuberculosis variant bovis BCG,microbial growth,"THP-1, BCG",intracellular,,MIC,> 10 µM
CC[C@H]1OC(=O)[C@H](C(C)C)NC(=O)[C@H](C)OC(=O)[C@@H](C(C)C)NC(=O)[C@@H](C(C)C)OC(=O)[C@H](C(C)C)NC(=O)[C@H](C)OC(=O)[C@@H](C(C)C)NC(=O)[C@@H](C(C)C)OC(=O)[C@H](C(C)C)NC(=O)[C@H](C)OC(=O)[C@@H](C(C)C)NC1=O,U-87 MG,"Western blot, refers to: ACO2",,"5 and 10 µM, 48 h",,protein level,no effect
Clc1cc(Cl)cc(CCCN2CCCC3=CC4CC(CN5CCCCC45)C32)c1 (stereo not shown),vesicular stomatitis virus,pseudovirus entry,,VSV G pseudovirus,,EC50,6.9 µM
CC(C)C[C@H](NC(=O)[C@H](CO)NC(=O)[C@H](CCCNC(=N)N)NC(=O)[C@H](CCCCN)NC(=O)[C@@H](NC(=O)[C@@H](NC(=O)CNC(=O)[C@H](CCCNC(=N)N)NC(=O)[C@H](Cc1c[nH]cn1)NC(=O)[C@H](Cc1c[nH]c2ccccc12)NC(=O)[C@H](Cc1ccccc1)NC(=O)[C@H](Cc1c[nH]cn1)NC(=O)[C@H](Cc1ccc(O)cc1)NC(=O)[C@@H](N)Cc1ccc(O)cc1)C(C)C)[C@@H](C)O)C(=O)N[C@@H](CO)C(=O)N1CCC[C@H]1C(=O)N[C@@H](Cc1c[nH]cn1)C(=O)N[C@@H](CCCNC(=N)N)C(=O)N1CCC[C@H]1C(=O)N[C@@H](CCCNC(=N)N)C(=O)O,"LPS, Escherichia coli 0111:B4",isothermal titration calorimetry,,"pH 7, 37 °C",,Kd,7.65 µM

# Excerpt of the above:
SMILES,tested on,test,test system,setting,how to read,endpoint,value
Fc1ccc(-c2ccc(/C=C/Cn3ccnc3)cc2)cc1,Mycobacterium tuberculosis variant bovis BCG,microbial growth,BCG,,,MIC50,0.5 µg/mL
CC[C@H](C)[C@H](NC(=O)[C@H](CCCCN)NC(=O)[C@H](CCCCN)NC(=O)[C@H](C)NC(=O)[C@@H](NC(=O)[C@H](C)NC(=O)[C@H](CC(C)C)NC(=O)[C@H](CC(C)C)NC(=O)[C@H](C)NC(=O)[C@H](CCCCN)NC(=O)[C@H](CC(C)C)NC(=O)[C@H](CC(N)=O)NC(=O)[C@@H](N)CC(C)C)C(C)C)C(=O)N[C@@H](CC(C)C)C(N)=O,U251MG,MTT,,24 h,,IC50,36.6 µM
